Earlier results, collected from citations in different studies.
Lines come from different studies, so protocols differ.
UniProt P10635, sequence (whole entry, looked up): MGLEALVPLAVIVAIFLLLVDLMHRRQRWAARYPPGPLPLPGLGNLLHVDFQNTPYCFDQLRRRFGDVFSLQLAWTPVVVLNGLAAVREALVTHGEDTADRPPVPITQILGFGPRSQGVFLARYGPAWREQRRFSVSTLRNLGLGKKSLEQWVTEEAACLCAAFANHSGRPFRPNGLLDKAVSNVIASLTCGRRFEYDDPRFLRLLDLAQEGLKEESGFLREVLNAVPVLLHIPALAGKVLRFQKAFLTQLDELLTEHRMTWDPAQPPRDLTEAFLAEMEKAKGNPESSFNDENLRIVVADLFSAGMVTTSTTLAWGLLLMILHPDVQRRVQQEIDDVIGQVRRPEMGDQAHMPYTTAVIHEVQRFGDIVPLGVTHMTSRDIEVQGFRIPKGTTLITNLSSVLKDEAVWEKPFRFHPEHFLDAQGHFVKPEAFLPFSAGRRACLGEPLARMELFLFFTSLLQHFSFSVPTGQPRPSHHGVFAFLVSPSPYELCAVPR
UniProt P16257, sequence (whole entry, looked up): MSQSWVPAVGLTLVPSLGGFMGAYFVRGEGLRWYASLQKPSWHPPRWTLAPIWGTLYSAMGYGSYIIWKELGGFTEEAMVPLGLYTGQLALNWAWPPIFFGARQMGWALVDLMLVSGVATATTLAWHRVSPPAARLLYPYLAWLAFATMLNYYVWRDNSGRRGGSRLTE
UniProt P21917, sequence (whole entry, looked up): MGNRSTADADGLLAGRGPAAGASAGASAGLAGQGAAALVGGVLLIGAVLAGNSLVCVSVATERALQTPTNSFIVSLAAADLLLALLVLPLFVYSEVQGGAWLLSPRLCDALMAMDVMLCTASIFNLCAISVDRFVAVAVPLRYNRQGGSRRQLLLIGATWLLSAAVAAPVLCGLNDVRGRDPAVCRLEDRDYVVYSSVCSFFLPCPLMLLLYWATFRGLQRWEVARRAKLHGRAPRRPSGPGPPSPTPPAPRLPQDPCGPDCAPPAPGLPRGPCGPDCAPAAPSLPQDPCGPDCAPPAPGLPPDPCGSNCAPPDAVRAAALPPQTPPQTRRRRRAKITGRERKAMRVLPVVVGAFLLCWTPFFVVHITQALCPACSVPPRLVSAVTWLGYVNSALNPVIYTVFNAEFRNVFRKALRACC

Structure (SMILES) | target | test | test system | setting | scale | endpoint | value
COc1ccc2c(c1)[C@]13CCCC[C@@H]1[C@H](C2)N(C)CC3 | CYP2D6 | refers to: dextromethorphan to dextrorphan ratio | human | 30 mg, with: simeprevir 150 mg | reference: with over without simeprevir | metabolic ratio | 0.99
CCN1C[C@]2(COC)[C@H](O)C[C@H](OC)[C@@]34[C@@H]5C[C@@]6(O)[C@H](OC(=O)c7ccccc7)[C@@H]5[C@@](OC(C)=O)([C@@H]([C@H](OC)[C@H]23)[C@@H]14)[C@@H](O)[C@@H]6OC | OCT2 | transport, inhibitor | – | with: tetraethylammonium | – | IC50 | 60 µM
CN([11CH3])C(=O)C(CCN1CCC(O)(c2ccc(Cl)cc2)CC1)(c1ccccc1)c1ccccc1 | P-glycoprotein, human | refers to: 11C radioactivity brain to plasma | healthy human volunteers | intravenous, dose not given, with: ciclosporin 10 mg/kg intravenous infusion | – | brain distribution increase | 110%
CNC(C)Cc1ccc2c(c1)OCO2 (stereo not shown) | CYP2D6 | inhibitor | human liver microsomes | – | – | Ki | 8.8 to 45 µM
COc1ccsc1CNCC[C@@]1(c2ccccn2)CCOC2(CCCC2)C1 | CYP2D6 | – | human CYP2D6 poor metabolizers | – | reference: extensive metabolizers | clearance | ~50%
COc1ccc2c(c1)[C@]13CCCC[C@@H]1[C@H](C2)N(C)CC3 | Cytochrome P450 2D6 (CYP2D6, Homo sapiens, UniProt P10635) | – | human extensive metabolizers | with: quinidine | – | fraction metabolized | 0.98
C=CCN(CC=C)CCc1c[nH]c2ccccc12 | Tspo (Rattus norvegicus, UniProt P16257) | binding, radioligand binding | rat kidney | with: [3H]PK11195 | – | Ki | > 10 µM
Cc1ncc2n1-c1ccc(Cl)cc1C(c1ccccc1F)=NC2 | CYP3A hepatic | – | healthy human, fed | intravenous, 0.025 mg/kg, cocktail, least squares mean, with: simeprevir 150 mg | reference: with over without simeprevir | AUC(0-last) ratio | 1.1
COc1ccc(CN(C(=O)[C@@H](N)Cc2c(C)cc(C(N)=O)cc2C)[C@@H](C)c2nc(-c3ccccc3)c[nH]2)cc1C(=O)O | P-glycoprotein | transport, inhibitor | – | 162-fold plasma level at 100 mg | – | inhibition | 6.25%
C=CCN(CC=C)CCc1c[nH]c2ccc(F)cc12 | DRD4 (Homo sapiens, UniProt P21917) | – | – | – | – | Ki | > 10 µM
